Experimental data of several laboratories.
Each numbered part is a random draw from the data of one study; scales do not carry over between parts. Positions count from the first letter of the parent shown.

Set 1
Target: ABI1, truncated, D143A, DHFR fusion (Arabidopsis thaliana)
Technique: DHFR PCA, deep sequencing
Sample: yeast
Notes: methotrexate growth selection, single substitutions
Together with: (+)-ABA 0.0091 µM
Reference: wild-type fitted maximum
Direction: higher = stronger binding
Quantity: relative binding score
Parent: PYL1, truncated, DHFR fusion (Arabidopsis thaliana); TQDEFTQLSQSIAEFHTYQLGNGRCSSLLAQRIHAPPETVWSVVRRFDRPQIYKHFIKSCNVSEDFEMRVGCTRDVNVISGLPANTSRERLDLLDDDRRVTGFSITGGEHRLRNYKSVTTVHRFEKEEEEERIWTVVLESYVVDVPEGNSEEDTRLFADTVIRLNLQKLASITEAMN; partner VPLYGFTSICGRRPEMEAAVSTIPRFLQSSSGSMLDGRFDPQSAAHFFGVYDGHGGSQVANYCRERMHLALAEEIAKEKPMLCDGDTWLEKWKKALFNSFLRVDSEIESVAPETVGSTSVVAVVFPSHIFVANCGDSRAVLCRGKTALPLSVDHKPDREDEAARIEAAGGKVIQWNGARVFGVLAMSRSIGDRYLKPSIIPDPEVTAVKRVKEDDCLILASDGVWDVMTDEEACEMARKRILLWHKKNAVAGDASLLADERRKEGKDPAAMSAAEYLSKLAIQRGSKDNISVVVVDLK
S104Q: -8.68%
N114R: 4%
Y115S: -0.594%
E125W: 2.45%
L169F: -0.108%

Set 2
Target: Interferon regulatory factor 7, full length, phosphomimetic (IRF7, Homo sapiens, UniProt Q92985, residues 1-503, S471D/S472D/S475D/S476D/S477D/S483D/S484D/S487D)
Chain of UniProt Q92985 (whole entry, unmodified, looked up): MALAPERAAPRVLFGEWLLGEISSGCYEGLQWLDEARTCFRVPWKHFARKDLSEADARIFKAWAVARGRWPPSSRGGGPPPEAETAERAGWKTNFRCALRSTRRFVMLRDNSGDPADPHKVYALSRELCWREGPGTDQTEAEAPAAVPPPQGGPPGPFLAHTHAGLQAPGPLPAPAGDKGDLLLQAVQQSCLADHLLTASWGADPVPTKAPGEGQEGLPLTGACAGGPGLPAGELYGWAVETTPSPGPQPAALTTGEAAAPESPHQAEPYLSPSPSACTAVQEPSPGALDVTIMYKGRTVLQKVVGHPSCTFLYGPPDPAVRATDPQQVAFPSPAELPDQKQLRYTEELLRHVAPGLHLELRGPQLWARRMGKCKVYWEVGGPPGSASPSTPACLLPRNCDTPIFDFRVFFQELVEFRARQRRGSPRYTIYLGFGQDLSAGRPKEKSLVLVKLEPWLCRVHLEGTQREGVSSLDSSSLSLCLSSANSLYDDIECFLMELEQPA
Technique: protein-binding microarray
Molecule type: double-stranded DNA, one strand shown
Sample: in vitro
Concentration: 2200 nM top
Notes: 60-bp whole probe
Together with: salmon DNA 0.4 mg/ml
Reference: random background probes
Direction: higher = stronger binding
Quantity: fitted relative affinity
All sequences stand within: GCCTAGCAC … GTCTTGATTCGCTTGACGCTGCTG
GTTTTTTGGTTTCTGGTTTAGTGCTAG: 5.66 z-score
GACGATATCGGGTTTAGAGACGTGCTA: 0.159 z-score
TTAGGTCTCGGTTTCGGCTAGTGCTAG: 3.37 z-score
CATAGAGATGCCTGTCCTCTGTGCTAG: 0.46 z-score
CTCTGTCCCTGTTTCTACTGGTGCTAG: 2.72 z-score
GTCGGTCTCGGTTTCGGGACGTGCTAG: 4.46 z-score
GACGGTTCCGGGTTTCGGGACGTGCTA: 3.02 z-score
GGCTCCTCCCCGCTTCTGGAGTGCTAG: -0.192 z-score

Set 3
Target: Histone acetyltransferase KAT6A, winged helix 1, GST fusion (KAT6A, Homo sapiens, UniProt Q92794, residues 1-85)
Technique: protein binding microarray
Molecule type: double-stranded DNA, one strand shown
Sample: in vitro
Concentration: not given
Notes: 8-mer, flanks averaged, mean of 2 arrays, mostly near background
Reference: not given
Direction: higher = stronger binding
Quantity: E-score
Target sequence (chain): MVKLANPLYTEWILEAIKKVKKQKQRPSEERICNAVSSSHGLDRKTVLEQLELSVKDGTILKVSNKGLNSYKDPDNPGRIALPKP
AGTCCGGA: 0.081
GGAGCCAC: -0.175
GGTATACA: 0.0596
GAGGCCAA: -0.319
ATGATTAC: 0.0586
GAGTCAGA: 0.0998
CCTTGACA: -0.12
CGGGTTTC: 0.26
CCAAAATC: -0.0421

Mixed results
PhoQ, residues 284 288 289 292 302 303 TSTLRA
fold induction (PhoP, residues 12 14 15 18 19 NNFVT (Escherichia coli, UniProt P23836); Sort-seq, item: YFP reporter; E. coli; PhoQ-PhoP variant library, together with: 10 µM Mg2+; reference: high Mg2+ state, higher = stronger signaling): 10.1

Some of these lines once more (set 3):
GGAGCCAC: -0.175
GGTATACA: 0.0596
